Measurements from different studies.
Lines come from different studies, so protocols differ. ± marks the error that the study gave.
Organism: SARS-CoV-2

CC(C)OC(=O)[C@H](C)N[P@](=O)(CO[C@H](C)Cn1cnc2c(N)ncnc21)Oc1ccccc1
EC50 (viral replication; Vero; 48 h): > 20 µM

C[C@@H]1CN(c2ncc(C(O)CO)cc2Cl)CCN1c1nc2c(-c3cc(F)c(F)c(F)c3)cc(C(F)(F)F)cc2[nH]1 (stereo partly drawn)
EC50 (viral replication; Huh-7-ACE2, USA-WA1/2020; 24 h): 1.4 µM

O=c1nc(NO)ccn1[C@@H]1O[C@H](CO)[C@@H](O)[C@H]1O
EC50 (qRT-PCR, item: viral RNA in supernatant; Vero, Washington): 0.6 ± 0.3 µM

O=C(Cn1nnc2ccccc21)N(Cc1cccc(Cl)c1)c1ccc(-c2cnc[nH]2)cc1
EC50 (viral replication; USA-WA1/2020): 0.3 µM

COc1cc(Nc2ccnc3ccc(Br)cc23)cc(OC)c1OC
EC50 (VeroE6/TMPRSS2; 24 h): 0.75 µM

Cn1cnc(Cn2c(=O)[nH]/c(=N\c3cc4cn(C)nc4cc3Cl)n(Cc3cc(F)c(F)cc3F)c2=O)n1
EC50 (viral replication; Vero C1008, XBB.1): 0.07 µM

[N-]=[N+]=N[C@]1(CO)O[C@@H](n2ccc(N)nc2=O)[C@@H](F)[C@@H]1O
EC50 (viral replication; Vero E6, USA-WA1/2020 nLuc reporter): > 100 µM

COc1ccc(Cc2nn3c([C@@H](CCCc4ccccc4)[C@@H](C)O)nc(C)c3c(=O)[nH]2)cc1OC
EC50 (plaque formation, plaque reduction; Vero E6; 72 h): 16.7 ± 5.9 µM

CCC(CC)COC(=O)[C@H](C)N[P@](=O)(OC[C@H]1O[C@@](C#N)(c2ccc3c(N)ncnn23)[C@H](O)[C@@H]1O)Oc1ccccc1
EC50 (viral replication; VeroE6/TMPRSS2): 0.91 µM

CCOC(=O)C1=C(CN2CCC(NC(=O)OC(C)(C)C)CC2)NC(=O)NC1c1ccccc1 (stereo not drawn)
EC50 (plaque formation, plaque reduction; Vero E6; 72 h): > 50 µM

CC(C)(C)[C@H](NC(=O)C(F)(F)F)C(=O)N1C[C@H]2[C@@H]([C@H]1C(=O)N[C@H](C#N)C[C@@H]1CCNC1=O)C2(C)C
EC50 (viral replication; Vero C1008, BA.5): 0.81 µM

CC(=O)c1cccc(NC(=O)c2cc3c(=O)n4ccccc4nc3n2C)c1
EC50 (viral replication, qPCR; Vero E6): 0.107 ± 0.00115 µM

C[C@@H]1CS/C(=N\NC(=O)C(=O)[C@H](NC(=O)C2CCCCCC2)C2CCOCC2)N1C
EC50 (viral replication; Huh-7-ACE2, USA-WA1/2020; 24 h): 0.078 µM

CC(C)(C)[C@H](NC(=O)C(F)(F)F)C(=O)N1C[C@H]2[C@@H]([C@H]1C(=O)N[C@H](C#N)C[C@@H]1CCNC1=O)C2(C)C
EC50 (nucleocapsid staining; Caco-2, Omicron BQ.1.1): 0.4 ± 0.1 µM

Cc1ccc(C(=O)Nc2ccc(S(=O)(=O)O)c3cc(S(=O)(=O)O)cc(S(=O)(=O)O)c23)cc1NC(=O)c1cccc(NC(=O)Nc2cccc(C(=O)Nc3cc(C(=O)Nc4ccc(S(=O)(=O)O)c5cc(S(=O)(=O)O)cc(S(=O)(=O)O)c45)ccc3C)c2)c1
EC50 (virus-induced cytopathic effect; Vero E6, USA-WA1/2020; 72 h): > 20 µM

N#C[C@@]1(n2ccc(N)nc2=O)O[C@H](CO)[C@@H](O)[C@H]1O
EC50 (viral replication, qRT-PCR of viral RNA; Vero, Washington): 2.1 ± 0.3 µM

COC(=O)[C@H]1[C@H]2C[C@@H]3c4[nH]c5ccccc5c4CCN3C[C@H]2C[C@@H](OC(=O)c2cc(OC)c(OC)c(OC)c2)[C@@H]1OC
EC50 (viral replication, high-content imaging screen; BetaCov/Belgium/GHB-03021/2020; cell-based): > 25.1 µM

CC(C)/N=c1\cc2n(-c3ccc(Cl)cc3)c3ccccc3nc-2cc1Nc1ccc(Cl)cc1
EC50 (viral replication; Huh-7-ACE2, USA-WA1/2020; 24 h): 0.49 µM

CC(C)(C)[C@H](NC(=O)C(F)(F)F)C(=O)N1C[C@H]2[C@@H]([C@H]1C(=O)N[C@@H](C[C@@H]1CCNC1=O)C(=O)c1nc3cccc(F)c3s1)C2(C)C
EC50 (viral replication; Vero C1008, JPN/TY/WK-521 (ancestral Wuhan)): 0.08 µM

COc1ccc(F)c2[nH]c(C(=O)N[C@@H](CC(C)C)C(=S)N[C@@H](C[C@@H]3CCNC3=O)C(=O)c3nc4c(F)cccc4s3)cc12
EC50 (viral replication, RT-qPCR; VeroE6, WK-521): 0.34 ± 0.015 µM

NC(=O)C1(N2CCCCC2)CCN(CCCN2c3ccccc3CCc3ccccc32)CC1
EC50 (viral replication, GFP plate reader screen; cell-based): 8.91 µM

CC(C)(C)c1ccc(N(Cc2cc(Cl)cs2)C(=O)Cc2cncc3ccccc23)cc1
EC50 (viral replication; Calu-3, Omicron BA.1): 6 µM

CNc1ncnc2c1nnn2[C@@H]1C(F)=C(CO)[C@@H](O)[C@H]1O
EC50 (viral replication, spike protein immunostaining; Vero; 48 h): > 100 µM

CC(C)(O)c1ccc2c(c1)C(=CCCN1CCC(O)(c3ccc(Cl)cc3)C(C)(C)C1)c1cccnc1CO2 (stereo not drawn)
EC50 (viral replication; Huh-7-ACE2, USA-WA1/2020; 24 h): 1 µM

COc1ccc(Cn2[se]c3ccccc3c2=O)c(OC)c1
EC50 (viral replication, WST-8; Vero E6, USA-WA1/2020; 72 h): > 20 µM

CC(C)OC(=O)[C@H](C)N[P@](=O)(OC[C@H]1O[C@@](C#N)(c2ccc3c(N)ncnn23)[C@H](O)[C@@H]1O)Oc1ccccc1
EC50 (viral replication; A549-ACE2-TMPRSS2, WA1; 24 h): 5.2 µM

OCCN1CCN(CCC=C2c3ccccc3Sc3ccc(C(F)(F)F)cc32)CC1
EC50 (viral replication, GFP plate reader screen; cell-based): 8.71 µM

NC(=O)c1c(NC(=O)c2cnn3c(C(F)(F)F)cc(-c4ccccc4)nc23)sc2c1CCCC2
EC50 (plaque formation, plaque reduction; Vero E6; 72 h): 8.1 ± 3.4 µM

CCC(CC)COC(=O)[C@H](C)N[P@](=O)(OC[C@H]1O[C@@](C#N)(c2ccc3c(N)ncnn23)[C@H](O)[C@@H]1O)Oc1ccccc1
EC50 (viral replication, qRT-PCR of viral RNA; Caco-2, Washington): 0.02 ± 0.01 µM

O=C(Nc1ccccc1F)c1cc2c(=O)n3ccccc3nc2n1Cc1ccccc1
EC50 (viral replication, qPCR; Vero E6): 0.0138 ± 0.00198 µM

COc1ccc(C(=O)Nc2ccccc2C(=O)NC(C(=O)Nc2ccccc2)C(C)C)cc1 (stereo not drawn)
EC50 (plaque formation, plaque reduction; Vero E6; 72 h): > 50 µM

CC[C@H](NC(=O)[C@H](CS(=O)(=O)CC1CC1)N[C@@H](c1ccc(F)cc1)C(F)(F)F)C(=O)C(=O)NC1CC1
EC50 (viral replication; Huh-7-ACE2, USA-WA1/2020; 24 h): 0.052 µM

CN(C)c1ccc(N(Cc2cc(Cl)cs2)C(=O)Cc2cncc3ccccc23)cc1
EC50 (viral replication; Calu-3, Omicron BA.2): 0.3 µM

Fc1ccc(-c2ccc(CN3CCN(c4cccc5ccoc45)CC3)[nH]2)cc1
EC50 (viral replication; 293T-ACE2, USA-WA1/2020; 24 h): 0.13 µM

C=C1C[C@@]23CC[C@H]4[C@@](C)(CCC[C@@]4(C)C(=O)O)[C@@H]2CC[C@@H]1C3
EC50 (viral replication; mNeonGreen reporter): 15.1 ± 0.9 µM

CCN(CC)C(=S)SSC(=S)N(CC)CC
EC50 (viral replication; Vero E6; 96 h): > 100 µM

Fc1ccc([C@@H]2CCNC[C@H]2COc2ccc3c(c2)OCO3)cc1
EC50 (viral replication, GFP plate reader screen; cell-based): 15.1 µM

CC(C)[C@H](NC(=O)[C@H](CCCNC(=N)N)NC(=O)N[C@@H](Cc1ccccc1)C(=O)O)C(=O)N[C@H](C=O)CCCNC(=N)N
EC50 (viral replication; Vero C1008, prototype): 31.5 µM

CCC(CC)COC(=O)[C@H](C)N[P@](=O)(OC[C@H]1O[C@@](C#N)(c2ccc3c(N)ncnn23)[C@H](O)[C@@H]1O)Oc1ccccc1
EC50 (viral replication): 7.2 µM

COc1ccc(C(=O)CN(C(=O)c2ccc(Cl)cc2)N2C(=O)CCC2=O)cc1
EC50 (plaque formation, plaque reduction; Vero E6; 72 h): > 50 µM

CCC(CC)COC(=O)[C@H](C)N[P@](=O)(OC[C@H]1O[C@@](C#N)(c2ccc3c(N)ncnn23)[C@H](O)[C@@H]1O)Oc1ccccc1
EC50 (viral replication, qPCR; Vero E6): 0.0099 ± 0.00175 µM

Cc1cccc(C)c1OCC(=O)N[C@@H](Cc1ccccc1)[C@@H](O)C[C@H](Cc1ccccc1)NC(=O)[C@H](C(C)C)N1CCCNC1=O
EC50 (viral replication, GFP plate reader screen; cell-based): 22.9 µM

COc1ccc(F)c2[nH]c(C(=O)N[C@@H](CC(C)C)C(=O)N[C@@H](C[C@@H]3CCNC3=O)C(=O)c3nc4c(F)cccc4s3)cc12
EC50 (viral replication; VeroE6, WK-521 (ancestral Wuhan)): 0.28 ± 0.02 µM

CC(=O)NCC(=O)NC1(C(=O)NC(c2ccccc2)c2ccccc2)CCCCC1
EC50 (plaque formation, plaque reduction; Vero E6; 72 h): > 50 µM

Cc1c(-c2ccc(-c3ccccc3F)cc2)nc2ccc(F)cc2c1C(=O)O
EC50 (viral replication; Calu-3; 48 h): 0.8 ± 0.1 µM

CN1CCC(CN2c3ccccc3Sc3ccccc32)C1 (stereo not drawn)
EC50 (viral replication, high-content imaging screen; cell-based): > 100 µM

Cc1ccc(-c2cc(C(F)(F)F)n3ncc(C(=O)Nc4sc5c(c4C(N)=O)CCCC5)c3n2)cc1
EC50 (plaque formation, plaque reduction; Vero E6; 72 h): 14.3 ± 9.6 µM

O=C1NC2CCCCN2C12CCN(CCCN1c3ccccc3CCc3ccc(Cl)cc31)CC2 (stereo not drawn)
EC50 (viral replication, high-content imaging screen; BetaCov/Belgium/GHB-03021/2020; cell-based): > 100 µM

CC(C)(C)[C@H](NC(=O)C(F)(F)F)C(=O)N1C[C@H]2[C@@H]([C@H]1C(=S)N[C@@H](C[C@@H]1CCNC1=O)C(=O)c1nc3cc(F)ccc3s1)C2(C)C
EC50 (viral replication; Vero C1008, JPN/TY/WK-521 (ancestral Wuhan)): 0.057 µM

CNC(=O)[C@@H](c1ccccc1)N1CCc2cc(OC)c(OC)cc2[C@@H]1CCc1ccc(C(F)(F)F)cc1
EC50 (viral replication, GFP plate reader screen; cell-based): 18.6 µM

CCOC(=O)c1c(CSc2ccccc2)n(C)c2cc(Br)c(O)c(CN(C)C)c12
EC50 (Vero C1008, MEX-BC2/2020; 96 h): 5.6 µM

Excerpt of the above:
CN1CCC(CN2c3ccccc3Sc3ccccc32)C1 (stereo not drawn)
EC50 (viral replication, high-content imaging screen; cell-based): > 100 µM

Cc1ccc(-c2cc(C(F)(F)F)n3ncc(C(=O)Nc4sc5c(c4C(N)=O)CCCC5)c3n2)cc1
EC50 (plaque formation, plaque reduction; Vero E6; 72 h): 14.3 ± 9.6 µM

O=C1NC2CCCCN2C12CCN(CCCN1c3ccccc3CCc3ccc(Cl)cc31)CC2 (stereo not drawn)
EC50 (viral replication, high-content imaging screen; BetaCov/Belgium/GHB-03021/2020; cell-based): > 100 µM

CC(C)(C)[C@H](NC(=O)C(F)(F)F)C(=O)N1C[C@H]2[C@@H]([C@H]1C(=S)N[C@@H](C[C@@H]1CCNC1=O)C(=O)c1nc3cc(F)ccc3s1)C2(C)C
EC50 (viral replication; Vero C1008, JPN/TY/WK-521 (ancestral Wuhan)): 0.057 µM

CNC(=O)[C@@H](c1ccccc1)N1CCc2cc(OC)c(OC)cc2[C@@H]1CCc1ccc(C(F)(F)F)cc1
EC50 (viral replication, GFP plate reader screen; cell-based): 18.6 µM
